{"data": "Assay results gathered from unrelated publications", "note": "A part holds a random share of what one study measured. Values joined by “and” are separate records of one study, mostly repeats; a detail may differ.", "UniProt Q9NSY1, sequence (whole entry, looked up)": "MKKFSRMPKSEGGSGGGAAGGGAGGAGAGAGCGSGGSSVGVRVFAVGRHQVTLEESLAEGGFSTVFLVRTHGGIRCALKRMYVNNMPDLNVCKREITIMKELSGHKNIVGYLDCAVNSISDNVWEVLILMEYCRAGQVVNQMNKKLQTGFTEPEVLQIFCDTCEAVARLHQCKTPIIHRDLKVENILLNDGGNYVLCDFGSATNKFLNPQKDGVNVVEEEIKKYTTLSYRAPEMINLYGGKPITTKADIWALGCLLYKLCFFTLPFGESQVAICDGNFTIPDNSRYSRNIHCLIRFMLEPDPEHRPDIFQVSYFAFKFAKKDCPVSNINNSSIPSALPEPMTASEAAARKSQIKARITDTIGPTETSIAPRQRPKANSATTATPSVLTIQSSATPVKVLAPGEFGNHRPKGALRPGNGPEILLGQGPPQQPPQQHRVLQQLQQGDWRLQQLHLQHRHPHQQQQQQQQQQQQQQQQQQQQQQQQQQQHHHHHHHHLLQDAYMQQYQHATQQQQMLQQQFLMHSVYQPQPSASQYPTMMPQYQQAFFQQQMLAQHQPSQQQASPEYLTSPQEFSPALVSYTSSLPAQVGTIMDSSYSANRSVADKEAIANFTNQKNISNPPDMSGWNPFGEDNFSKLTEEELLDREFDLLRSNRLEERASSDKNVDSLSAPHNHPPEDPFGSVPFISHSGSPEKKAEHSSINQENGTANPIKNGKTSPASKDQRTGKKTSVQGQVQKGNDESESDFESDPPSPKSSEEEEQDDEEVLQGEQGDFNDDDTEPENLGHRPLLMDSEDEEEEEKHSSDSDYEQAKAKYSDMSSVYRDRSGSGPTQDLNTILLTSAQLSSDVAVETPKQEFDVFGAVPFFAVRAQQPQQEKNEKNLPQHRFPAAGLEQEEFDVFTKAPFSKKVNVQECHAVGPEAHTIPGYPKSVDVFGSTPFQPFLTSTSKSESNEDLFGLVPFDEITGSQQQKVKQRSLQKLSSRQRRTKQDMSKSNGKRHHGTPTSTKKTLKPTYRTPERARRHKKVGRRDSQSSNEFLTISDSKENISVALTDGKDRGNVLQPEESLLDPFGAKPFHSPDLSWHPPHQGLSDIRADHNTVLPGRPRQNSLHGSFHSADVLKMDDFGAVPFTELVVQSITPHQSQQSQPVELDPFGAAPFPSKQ", "UniProt P49137, sequence (whole entry, looked up)": "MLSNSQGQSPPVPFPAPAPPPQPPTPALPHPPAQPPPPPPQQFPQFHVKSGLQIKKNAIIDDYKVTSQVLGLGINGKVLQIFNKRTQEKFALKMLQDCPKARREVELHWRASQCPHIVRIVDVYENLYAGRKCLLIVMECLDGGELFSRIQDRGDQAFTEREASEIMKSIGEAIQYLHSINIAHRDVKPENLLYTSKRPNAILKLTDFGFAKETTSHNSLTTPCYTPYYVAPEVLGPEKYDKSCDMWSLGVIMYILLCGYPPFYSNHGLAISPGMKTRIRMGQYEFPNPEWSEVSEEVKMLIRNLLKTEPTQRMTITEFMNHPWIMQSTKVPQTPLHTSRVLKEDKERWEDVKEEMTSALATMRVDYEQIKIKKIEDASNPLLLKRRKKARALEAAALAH", "UniProt Q96L34, sequence (whole entry, looked up)": "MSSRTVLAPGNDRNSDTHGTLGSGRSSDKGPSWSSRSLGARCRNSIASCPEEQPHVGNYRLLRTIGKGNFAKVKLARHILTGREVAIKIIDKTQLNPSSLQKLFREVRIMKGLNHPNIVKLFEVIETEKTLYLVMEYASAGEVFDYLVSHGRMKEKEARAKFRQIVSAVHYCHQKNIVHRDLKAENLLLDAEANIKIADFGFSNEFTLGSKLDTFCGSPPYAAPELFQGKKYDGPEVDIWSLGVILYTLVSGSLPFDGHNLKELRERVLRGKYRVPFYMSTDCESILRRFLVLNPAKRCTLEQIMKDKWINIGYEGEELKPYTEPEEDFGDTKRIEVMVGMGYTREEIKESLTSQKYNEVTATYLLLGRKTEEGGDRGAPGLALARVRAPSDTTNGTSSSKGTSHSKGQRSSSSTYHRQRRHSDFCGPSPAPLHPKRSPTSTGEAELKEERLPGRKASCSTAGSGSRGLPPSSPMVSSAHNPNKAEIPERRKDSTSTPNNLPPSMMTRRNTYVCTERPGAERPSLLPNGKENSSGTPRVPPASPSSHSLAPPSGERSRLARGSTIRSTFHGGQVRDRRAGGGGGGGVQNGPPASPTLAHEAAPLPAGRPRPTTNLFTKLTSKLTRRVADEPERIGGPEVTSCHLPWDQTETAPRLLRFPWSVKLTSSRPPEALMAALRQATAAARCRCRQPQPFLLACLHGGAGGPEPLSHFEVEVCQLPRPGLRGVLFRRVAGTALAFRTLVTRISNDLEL", "UniProt P30291, sequence (whole entry, looked up)": "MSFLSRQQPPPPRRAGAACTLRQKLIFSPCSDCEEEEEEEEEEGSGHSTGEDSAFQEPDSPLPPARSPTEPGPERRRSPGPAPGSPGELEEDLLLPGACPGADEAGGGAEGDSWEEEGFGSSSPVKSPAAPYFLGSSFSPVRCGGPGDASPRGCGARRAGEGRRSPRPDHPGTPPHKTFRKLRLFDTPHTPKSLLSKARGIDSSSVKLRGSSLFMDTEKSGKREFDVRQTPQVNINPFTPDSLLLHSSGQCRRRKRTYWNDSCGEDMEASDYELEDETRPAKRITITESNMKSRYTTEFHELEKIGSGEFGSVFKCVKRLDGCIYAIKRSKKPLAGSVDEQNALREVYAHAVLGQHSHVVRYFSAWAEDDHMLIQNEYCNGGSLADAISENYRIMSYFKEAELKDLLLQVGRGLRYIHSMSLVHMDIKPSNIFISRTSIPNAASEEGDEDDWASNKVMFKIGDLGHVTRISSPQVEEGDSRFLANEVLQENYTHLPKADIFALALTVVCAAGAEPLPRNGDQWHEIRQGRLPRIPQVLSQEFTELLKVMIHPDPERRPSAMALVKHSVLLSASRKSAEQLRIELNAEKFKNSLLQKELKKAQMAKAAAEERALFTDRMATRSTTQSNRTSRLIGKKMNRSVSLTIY", "UniProt O14730, sequence (whole entry, looked up)": "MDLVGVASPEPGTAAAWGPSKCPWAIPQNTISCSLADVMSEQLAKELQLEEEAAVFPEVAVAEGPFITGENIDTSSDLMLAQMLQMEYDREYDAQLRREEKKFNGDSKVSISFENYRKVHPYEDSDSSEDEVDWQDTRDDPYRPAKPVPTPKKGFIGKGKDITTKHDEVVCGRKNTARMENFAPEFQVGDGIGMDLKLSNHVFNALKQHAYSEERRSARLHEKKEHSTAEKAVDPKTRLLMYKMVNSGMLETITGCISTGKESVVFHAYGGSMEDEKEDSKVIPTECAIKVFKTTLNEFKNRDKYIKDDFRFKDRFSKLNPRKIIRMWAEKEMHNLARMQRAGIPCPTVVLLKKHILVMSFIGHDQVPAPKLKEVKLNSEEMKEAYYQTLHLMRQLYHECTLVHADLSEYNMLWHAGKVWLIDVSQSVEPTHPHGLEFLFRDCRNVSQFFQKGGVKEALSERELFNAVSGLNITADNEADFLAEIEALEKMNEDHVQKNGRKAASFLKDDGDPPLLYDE"}
{"data": "Study 1", "Compound": "CN([C@@H]1CCc2c(CC(=O)O)c3ccccc3n2C1)S(=O)(=O)c1ccc(F)cc1", "effect on": "cell-free assay", "technique": "competition with immobilised ligand", "concentration": "1 µM"}
{"target": "MARK4 (Homo sapiens, UniProt Q96L34)", "remaining binding [%]": 100}
{"target": "CSNK2A2 (Homo sapiens, UniProt P19784)", "remaining binding [%]": 100}
{"target": "WEE1 (Homo sapiens, UniProt P30291)", "remaining binding [%]": 100}
{"target": "CDK17 (Homo sapiens, UniProt Q00537)", "remaining binding [%]": 100}
{"target": "DYRK1B (Homo sapiens, UniProt Q9Y463)", "remaining binding [%]": 44}
{"target": "BMP2K (Homo sapiens, UniProt Q9NSY1)", "remaining binding [%]": 100}
{"target": "CDC42BPB (Homo sapiens, UniProt Q9Y5S2)", "remaining binding [%]": 100}
{"target": "FLT3 (Homo sapiens, UniProt P36888, D835V/ITD)", "remaining binding [%]": 95}
{"target": "CDK13 (Homo sapiens, UniProt Q14004)", "remaining binding [%]": 95}
{"data": "Study 2", "Compound": "O=C(Nc1ccccc1)Nc1cccc(Oc2ccc3nccn3n2)c1", "concentration": "1 µM"}
{"target": "ACVR1 (Homo sapiens, UniProt Q04771)", "assay": "competitive binding panel", "scale": "relative to: vehicle", "remaining binding": "100%"}
{"target": "MAPKAPK2 (Homo sapiens, UniProt P49137)", "assay": "competitive binding panel", "scale": "relative to: vehicle", "remaining binding": "100%"}
{"target": "RIOK3 (Homo sapiens, UniProt O14730)", "assay": "competitive binding panel", "scale": "relative to: vehicle", "remaining binding": "85%"}
{"target": "EPHA6 (Homo sapiens, UniProt Q9UF33)", "assay": "competitive binding panel", "scale": "relative to: vehicle", "remaining binding": "100%"}
{"target": "MAPK13 (Homo sapiens, UniProt O15264)", "assay": "competitive binding", "setting": "p38-delta", "remaining binding": "100%"}
{"data": "Study 3", "target": "Serine/threonine-protein kinase MARK1 (MARK1, Homo sapiens, UniProt Q9P0L2)", "effect on": "enzyme activity", "action": "inhibitor", "concentration": "0.5 µM", "relative to": "control", "UniProt Q9P0L2, sequence (whole entry, looked up)": "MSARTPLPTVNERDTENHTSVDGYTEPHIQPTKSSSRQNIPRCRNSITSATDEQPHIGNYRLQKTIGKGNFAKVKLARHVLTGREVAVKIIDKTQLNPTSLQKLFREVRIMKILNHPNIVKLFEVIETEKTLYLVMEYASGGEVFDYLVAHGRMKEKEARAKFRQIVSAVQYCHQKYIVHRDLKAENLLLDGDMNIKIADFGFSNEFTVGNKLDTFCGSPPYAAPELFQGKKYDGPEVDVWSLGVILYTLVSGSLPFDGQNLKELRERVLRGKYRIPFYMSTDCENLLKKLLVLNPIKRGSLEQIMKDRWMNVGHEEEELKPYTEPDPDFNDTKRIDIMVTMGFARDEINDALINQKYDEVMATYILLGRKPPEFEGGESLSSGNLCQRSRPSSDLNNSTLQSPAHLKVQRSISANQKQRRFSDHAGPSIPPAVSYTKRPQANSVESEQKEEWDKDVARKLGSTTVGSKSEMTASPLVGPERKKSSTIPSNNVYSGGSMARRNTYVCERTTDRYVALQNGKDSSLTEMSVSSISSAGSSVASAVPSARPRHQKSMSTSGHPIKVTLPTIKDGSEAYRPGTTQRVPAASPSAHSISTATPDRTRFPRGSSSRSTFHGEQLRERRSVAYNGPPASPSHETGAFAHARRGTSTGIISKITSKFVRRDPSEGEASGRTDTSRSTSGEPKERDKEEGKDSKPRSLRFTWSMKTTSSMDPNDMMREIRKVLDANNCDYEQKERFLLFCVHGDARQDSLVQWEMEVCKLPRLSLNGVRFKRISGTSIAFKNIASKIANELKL"}
{"SMILES": "Nc1[nH]nc2nc3ccccc3nc12", "remaining activity [%]": 95.7}
{"SMILES": "CNC(=O)c1cc(Oc2ccc(NC(=O)Nc3ccc(Cl)c(C(F)(F)F)c3)cc2)ccn1", "remaining activity [%]": 80.3}
{"SMILES": "Cn1c2ccccc2c2c3c(c4c5ccccc5n(CCC#N)c4c21)CNC3=O", "remaining activity [%]": 20.8}
{"SMILES": "Cc1ccc(Nc2nccc(N(C)c3ccc4c(C)n(C)nc4c3)n2)cc1S(N)(=O)=O", "remaining activity [%]": 99.9}
{"SMILES": "O=C(CCCc1ccc(-c2ccccc2F)cc1)Nc1ccc(O)cc1", "remaining activity [%]": 96.7}
{"SMILES": "OCC(O)CCON=C1C(c2c(O)[nH]c3ccccc23)=Nc2ccccc21 (stereo not shown)", "remaining activity [%]": 60.5}
{"SMILES": "Cc1ccc(NC(=O)c2ccc(CN3CCN(C)CC3)cc2)cc1Nc1nc(-c2cccnc2)cs1", "remaining activity [%]": 86.9}
{"SMILES": "COc1cc2nccc(Oc3ccc(NC(=S)NC(=O)c4ccccc4C)cc3)c2cc1OC", "remaining activity [%]": 91.4}
{"SMILES": "O=C(Nc1cccc(Nc2cc(Nc3cccc(C(F)(F)F)c3)ncn2)c1)C1CC1", "remaining activity [%]": 102}
{"SMILES": "COc1ccc(CNC(=O)Nc2ncc([N+](=O)[O-])s2)cc1", "remaining activity [%]": 106}
{"SMILES": "CN(C)c1ccc(C=C2C(=O)Nc3ccccc32)cc1", "remaining activity [%]": 97.3}
{"SMILES": "O=C(O)c1ccc2c3c1cccc3c(=O)n1c3ccccc3nc21", "remaining activity [%]": 79.5}
{"SMILES": "CC(C)[C@H](CO)Nc1nc(Nc2cc(N)cc(Cl)c2)c2ncn(C(C)C)c2n1", "remaining activity [%]": 87.5}
{"SMILES": "COc1ccc(OC)c2c(=S)c3ccccc3[nH]c12", "remaining activity [%]": 88.3}
{"SMILES": "Cc1nc(-c2ccccc2)c(-c2ccncc2)o1", "remaining activity [%]": 92.5}
{"data": "Study 4", "target": "Calcium/calmodulin-dependent protein kinase type II subunit alpha (CAMK2A, Homo sapiens, UniProt Q9UQM7)", "effect on": "enzyme activity", "action": "inhibitor", "concentration": "10 µM", "UniProt Q9UQM7, sequence (whole entry, looked up)": "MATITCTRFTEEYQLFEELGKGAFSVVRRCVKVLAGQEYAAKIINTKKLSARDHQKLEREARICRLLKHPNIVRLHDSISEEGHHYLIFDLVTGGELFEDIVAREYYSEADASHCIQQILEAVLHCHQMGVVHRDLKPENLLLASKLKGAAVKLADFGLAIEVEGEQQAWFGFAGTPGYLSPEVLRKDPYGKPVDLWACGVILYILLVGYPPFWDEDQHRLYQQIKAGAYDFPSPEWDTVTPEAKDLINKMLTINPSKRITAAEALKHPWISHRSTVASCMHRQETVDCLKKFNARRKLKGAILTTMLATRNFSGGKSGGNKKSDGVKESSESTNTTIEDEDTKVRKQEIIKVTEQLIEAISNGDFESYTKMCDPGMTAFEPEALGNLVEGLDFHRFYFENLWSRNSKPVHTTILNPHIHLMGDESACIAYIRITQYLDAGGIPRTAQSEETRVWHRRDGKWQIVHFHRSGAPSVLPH"}
{"SMILES": "C=C1C[C@]23C[C@@]1(O)CC[C@H]2[C@@]12C=C[C@H](O)[C@@](C)(C(=O)O1)[C@H]2[C@@H]3C(=O)O", "inhibition": "27%"}
{"SMILES": "C[C@]12C=CC(=O)C=C1CC[C@@H]1[C@@H]2[C@@H](O)C[C@@]2(C)[C@H]1CC[C@]2(O)C(=O)CO", "inhibition": "-1%"}
{"SMILES": "CC1=CC[C@@H](C(C)(C)O)CC1", "inhibition": "0.43% and -0.17%"}
{"SMILES": "CC1=CC(=O)C(C(C)C)=CC1=O", "inhibition": "19%"}
{"SMILES": "C[N+](C)(C)CCCCCCCCCC[N+](C)(C)C", "inhibition": "-11%"}
{"note": "Repeated from above (study 1):"}
{"target": "CDC42BPB (Homo sapiens, UniProt Q9Y5S2)", "remaining binding [%]": 100}
{"target": "FLT3 (Homo sapiens, UniProt P36888, D835V/ITD)", "remaining binding [%]": 95}
{"target": "CDK13 (Homo sapiens, UniProt Q14004)", "remaining binding [%]": 95}
